Measured values from different studies.
Each line is one published result; not all experiments were run side by side. Several values in a cell are separate wells, animals, samples, runs or records. Numbers after ± are the reported error.
niaR T17A: niaR 1-174 T17A (Streptococcus mutans, UniProt Q8DVX8)
B1: CXCL16; sequence looked up; chain NEGSVTGSCYCGKRISSDSPPSVQFMNRLRKHLRAYHRCLYYTRFQLLSWSVCGGNKDPWVQELMSCLDLKECGHAYSGIVAHQKHLLPTSPPISQASEGASSDIHTPAQMLLSTLQSTQRPTLPVGSLSSDKELTRPNETTIHTAGHSLAAGPEAGENQKQPEKNAGPTARTSATVPVLCLLAIIFILTAALSYVLCKRRRGQSPQSSPDLPVHYIPVAPDSNT
B2: Lqq V toxin, rhodamine on Lys60 (Leiurus quinquestriatus quinquestriatus, UniProt P01481); ends and bridges not checked; also: 125I-labelled, site not given here; rhodamine on Lys60; chain LKDGYIVDDKNCTFFCGRNAYCNDECKKKGGESGYCQWASPYGNACWCYKLPDRVSIKEK(6‑carboxytetramethylrhodamine acetamide)GRCN
UniProt Q8JUX6, sequence (whole entry, looked up): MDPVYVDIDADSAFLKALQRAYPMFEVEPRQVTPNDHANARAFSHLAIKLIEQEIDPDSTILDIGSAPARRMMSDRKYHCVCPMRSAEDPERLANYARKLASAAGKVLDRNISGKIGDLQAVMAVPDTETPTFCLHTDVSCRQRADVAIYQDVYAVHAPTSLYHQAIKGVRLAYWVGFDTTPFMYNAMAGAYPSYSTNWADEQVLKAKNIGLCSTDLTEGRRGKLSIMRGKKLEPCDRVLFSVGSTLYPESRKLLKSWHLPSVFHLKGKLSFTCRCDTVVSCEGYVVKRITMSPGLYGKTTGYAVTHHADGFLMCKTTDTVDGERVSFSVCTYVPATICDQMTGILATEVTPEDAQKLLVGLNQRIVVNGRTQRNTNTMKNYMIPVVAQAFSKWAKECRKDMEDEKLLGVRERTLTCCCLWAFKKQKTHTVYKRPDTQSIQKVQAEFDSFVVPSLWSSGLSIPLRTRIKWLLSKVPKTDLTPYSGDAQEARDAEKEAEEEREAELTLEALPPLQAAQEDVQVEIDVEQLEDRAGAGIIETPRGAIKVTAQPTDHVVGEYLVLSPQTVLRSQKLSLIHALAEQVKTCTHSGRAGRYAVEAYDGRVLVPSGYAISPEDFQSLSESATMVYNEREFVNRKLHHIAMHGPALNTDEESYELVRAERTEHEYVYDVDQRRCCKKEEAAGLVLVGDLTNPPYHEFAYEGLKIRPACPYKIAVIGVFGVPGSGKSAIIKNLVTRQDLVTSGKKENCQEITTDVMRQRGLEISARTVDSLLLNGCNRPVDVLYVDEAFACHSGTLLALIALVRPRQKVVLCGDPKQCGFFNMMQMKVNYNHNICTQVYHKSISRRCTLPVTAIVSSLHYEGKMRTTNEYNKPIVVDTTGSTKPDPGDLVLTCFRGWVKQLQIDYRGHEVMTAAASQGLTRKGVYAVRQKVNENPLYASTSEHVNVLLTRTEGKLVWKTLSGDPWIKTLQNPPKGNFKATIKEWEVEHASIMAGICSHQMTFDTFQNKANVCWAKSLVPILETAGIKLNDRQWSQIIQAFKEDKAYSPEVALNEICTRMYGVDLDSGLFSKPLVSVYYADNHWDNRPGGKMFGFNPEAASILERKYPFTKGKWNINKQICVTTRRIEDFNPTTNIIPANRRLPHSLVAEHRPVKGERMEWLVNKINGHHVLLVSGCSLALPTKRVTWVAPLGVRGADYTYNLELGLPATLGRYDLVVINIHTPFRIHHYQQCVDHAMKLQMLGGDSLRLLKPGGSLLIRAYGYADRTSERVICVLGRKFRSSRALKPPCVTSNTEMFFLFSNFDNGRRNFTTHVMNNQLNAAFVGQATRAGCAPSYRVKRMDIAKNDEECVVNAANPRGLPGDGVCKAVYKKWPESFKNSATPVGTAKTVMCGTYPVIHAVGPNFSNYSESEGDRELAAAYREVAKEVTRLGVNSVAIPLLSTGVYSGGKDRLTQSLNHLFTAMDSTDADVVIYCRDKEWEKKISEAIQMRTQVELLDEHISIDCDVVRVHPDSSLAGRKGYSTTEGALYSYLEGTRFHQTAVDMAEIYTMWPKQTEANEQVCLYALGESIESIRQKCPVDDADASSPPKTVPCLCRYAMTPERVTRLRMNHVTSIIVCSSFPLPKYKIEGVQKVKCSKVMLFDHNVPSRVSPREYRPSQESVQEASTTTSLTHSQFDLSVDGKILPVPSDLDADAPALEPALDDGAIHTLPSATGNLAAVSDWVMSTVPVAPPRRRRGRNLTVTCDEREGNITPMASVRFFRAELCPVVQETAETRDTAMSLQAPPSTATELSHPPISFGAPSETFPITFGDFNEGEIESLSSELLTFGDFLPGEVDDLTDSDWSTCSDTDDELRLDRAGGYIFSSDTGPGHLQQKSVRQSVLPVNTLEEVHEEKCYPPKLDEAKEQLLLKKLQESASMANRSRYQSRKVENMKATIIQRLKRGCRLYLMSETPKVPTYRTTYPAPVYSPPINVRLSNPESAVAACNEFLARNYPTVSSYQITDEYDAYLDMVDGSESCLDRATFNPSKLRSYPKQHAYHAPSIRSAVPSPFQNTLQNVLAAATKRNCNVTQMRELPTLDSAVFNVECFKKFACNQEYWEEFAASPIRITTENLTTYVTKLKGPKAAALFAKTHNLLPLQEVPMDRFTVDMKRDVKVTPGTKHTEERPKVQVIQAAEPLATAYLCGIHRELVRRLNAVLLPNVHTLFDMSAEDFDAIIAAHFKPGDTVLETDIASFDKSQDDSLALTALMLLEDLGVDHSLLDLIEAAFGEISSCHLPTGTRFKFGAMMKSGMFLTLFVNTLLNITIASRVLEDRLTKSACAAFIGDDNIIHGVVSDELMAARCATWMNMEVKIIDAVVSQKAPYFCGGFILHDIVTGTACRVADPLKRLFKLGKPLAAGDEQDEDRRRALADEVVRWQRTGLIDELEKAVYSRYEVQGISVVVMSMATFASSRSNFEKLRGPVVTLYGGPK
UniProt P04775, sequence (whole entry, looked up): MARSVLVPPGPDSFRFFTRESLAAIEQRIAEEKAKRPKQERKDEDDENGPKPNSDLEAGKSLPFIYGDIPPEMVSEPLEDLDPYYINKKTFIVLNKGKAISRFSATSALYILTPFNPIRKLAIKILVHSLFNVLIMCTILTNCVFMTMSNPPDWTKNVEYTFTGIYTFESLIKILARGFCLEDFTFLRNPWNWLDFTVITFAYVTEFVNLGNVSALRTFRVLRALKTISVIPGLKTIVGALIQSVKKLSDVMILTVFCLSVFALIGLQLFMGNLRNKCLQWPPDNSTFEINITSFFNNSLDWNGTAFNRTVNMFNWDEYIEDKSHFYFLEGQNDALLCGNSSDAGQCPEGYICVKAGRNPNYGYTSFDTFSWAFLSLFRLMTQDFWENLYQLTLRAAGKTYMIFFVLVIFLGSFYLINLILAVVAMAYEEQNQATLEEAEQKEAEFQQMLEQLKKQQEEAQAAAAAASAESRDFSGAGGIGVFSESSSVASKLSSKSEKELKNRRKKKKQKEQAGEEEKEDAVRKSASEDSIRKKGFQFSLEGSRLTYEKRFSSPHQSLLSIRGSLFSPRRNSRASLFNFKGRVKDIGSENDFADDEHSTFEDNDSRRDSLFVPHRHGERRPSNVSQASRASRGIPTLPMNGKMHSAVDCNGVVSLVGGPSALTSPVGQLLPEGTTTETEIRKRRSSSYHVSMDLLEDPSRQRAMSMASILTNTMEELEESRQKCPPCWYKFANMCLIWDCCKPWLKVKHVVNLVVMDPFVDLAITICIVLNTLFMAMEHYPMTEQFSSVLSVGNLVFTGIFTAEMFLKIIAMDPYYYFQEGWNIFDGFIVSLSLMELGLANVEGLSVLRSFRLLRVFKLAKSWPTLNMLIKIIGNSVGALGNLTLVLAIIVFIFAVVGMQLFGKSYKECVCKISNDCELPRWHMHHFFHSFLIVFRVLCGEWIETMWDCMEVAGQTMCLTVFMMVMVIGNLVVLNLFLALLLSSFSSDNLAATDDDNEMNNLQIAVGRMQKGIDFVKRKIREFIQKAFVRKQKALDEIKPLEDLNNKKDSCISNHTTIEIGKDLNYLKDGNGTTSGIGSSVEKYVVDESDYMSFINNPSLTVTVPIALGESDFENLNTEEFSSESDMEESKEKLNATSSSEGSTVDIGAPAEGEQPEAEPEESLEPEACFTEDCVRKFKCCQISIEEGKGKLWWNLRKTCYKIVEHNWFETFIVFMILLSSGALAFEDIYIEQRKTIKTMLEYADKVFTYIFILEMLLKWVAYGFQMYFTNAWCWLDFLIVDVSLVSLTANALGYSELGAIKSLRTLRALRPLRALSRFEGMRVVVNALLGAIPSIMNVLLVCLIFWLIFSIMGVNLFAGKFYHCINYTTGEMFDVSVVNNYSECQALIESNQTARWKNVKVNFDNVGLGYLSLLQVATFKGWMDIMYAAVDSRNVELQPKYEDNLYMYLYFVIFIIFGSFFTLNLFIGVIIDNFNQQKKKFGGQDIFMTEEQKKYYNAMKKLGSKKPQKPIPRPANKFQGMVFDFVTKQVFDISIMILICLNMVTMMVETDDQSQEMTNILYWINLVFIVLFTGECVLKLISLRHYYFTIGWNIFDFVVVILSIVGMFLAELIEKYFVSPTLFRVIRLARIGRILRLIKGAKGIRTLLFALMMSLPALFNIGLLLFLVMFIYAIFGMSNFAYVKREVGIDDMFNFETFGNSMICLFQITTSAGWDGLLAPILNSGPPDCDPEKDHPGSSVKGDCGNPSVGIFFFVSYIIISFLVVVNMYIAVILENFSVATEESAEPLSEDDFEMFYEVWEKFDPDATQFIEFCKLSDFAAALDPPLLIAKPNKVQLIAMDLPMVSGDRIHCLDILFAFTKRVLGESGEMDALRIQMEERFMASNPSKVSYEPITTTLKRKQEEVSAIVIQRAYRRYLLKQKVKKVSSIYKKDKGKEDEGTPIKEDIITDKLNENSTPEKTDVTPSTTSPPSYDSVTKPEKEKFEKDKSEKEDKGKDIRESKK

Substance	tested on	assay	test system	conditions	scale	measurement	result
LATNNLVVM	–	–	peptide, tetramer-reactive CD8+ T cells, unexposed HLA-A*02:01 subjects	–	–	number of clonotypes	4
cbpA fragment (Streptococcus pneumoniae)	CFH 508-567 M497E (Homo sapiens, UniProt P08603)	ITC	–	–	–	ΔH	-15.5 ± 0.32 kcal/mol
TFFRLFNRSFTGRRRRSVQWCA	Streptococcus mutans	2D-DIGE, item: hypothetical protein SMU.689	peptide, UA159	20 µg/mL, 1 h	relative to: water control	protein level ratio	-17.5
Cc1cccc(NC(=O)C[S+]([O-])c2nc(-c3ccccc3)cn2-c2ccc(Cl)cc2)c1C (racemic)	Middle East respiratory syndrome-related coronavirus	viral entry	–	–	–	IC50	17.1 µM
QLTPTWRVY	–	–	peptide, tetramer-reactive CD8+ T cells, unexposed HLA-A*02:01 subjects	–	–	number of clonotypes	0
ILKEPVHGAY	KIR2DL2+ 2DS2+ 2DL3− NK cells	NK cell response	peptide, human	concentration not given, added: peptide-pulsed RMA-S cells	relative to: no peptide	relative reactivity	92.2% and 88.4% and 77.6%
B1 (CXCL16)	Human immunodeficiency virus 1	TZM-bl readout	PHA-stimulated human PBMCs, CXCR4-tropic	500 ng/mL	–	viral replication	no effect
ILKEPVHGVY	KIR2DL2− 2DS2− 2DL3+ NK cells	NK cell response	peptide, human	concentration not given, added: peptide-pulsed RMA-S cells	relative to: no peptide	relative reactivity	95.5% and 99.3% and 97.3%
COc1ncc(-c2cn([C@@H]3O[C@](F)(CO)[C@@H](O)[C@H]3O)cn2)c(OC)n1	Zaire ebolavirus	viral replication, reporter virus	Huh-7	72 h	–	IC50	> 100 µM
α-dendrotoxin	Kv channel (rat)	radioligand binding, antagonist	–	–	–	Ki	0.22 nM
B2	Scn2a whole channel (Rattus norvegicus, UniProt P04775)	radioligand	peptide	–	–	Kd	6.5 nM
Dengue virus E protein virion, UV-inactivated (Dengue virus serotype 2)	PLG kringle 5, 461-544 (Homo sapiens)	BLI	–	–	–	Kd	56.4 nM
quinacrine mustard	Dengue virus type 2	viral replication, Rluc reporter replicon	BHK-21 with DENV2 replicon	24 h	–	EC50	390 ± 100 nM
CC(C)C(=O)OC[C@@]1(F)O[C@@H](n2cnc(-c3cnc[nH]c3=O)c2)[C@H](OC(=O)C(C)C)[C@@H]1OC(=O)C(C)C	Zaire ebolavirus	viral replication, reporter virus	Huh-7	72 h	–	IC50	75.3 µM
autoinducing peptide I	AgrC-I H239Q (Staphylococcus aureus)	reporter gene, agonist	Staphylococcus aureus P3-blaZ reporter, Staphylococcus aureus	–	–	EC50	> 10000 nM
trehalose dimycolate	–	flow cytometry	C57BL/6 mice, lung	intravenous, 100 µg, day 5	relative to: vehicle	alveolar macrophage frequency increase	1 ± 1.1%
EEFEPSTQYEY	–	–	peptide, tetramer-reactive CD8+ T cells, COVID-19 convalescent HLA-B*07:02 subjects	–	–	number of clonotypes	2
COc1ncc(-c2cn([C@@H]3O[C@](F)(COC(=O)C(C)C)[C@@H](OC(=O)C(C)C)[C@H]3OC(=O)C(C)C)cn2)c(OC)n1	Zaire ebolavirus	viral replication, reporter virus	Huh-7	72 h	–	IC50	> 100 µM
TTTATAAAAAACCAATATATGTCTTGACACATGTAAAAAACGTTGTATAATG (dsDNA)	niaR T17A	EMSA	double-stranded DNA, one strand shown	–	–	binding	binds
KLPQLCTEV	HN12 (HLA-A2+ HPV+)	111In release	peptide	concentration not given, 16 h, E:T 25:1 IVS 5, added: peptide-generated T-cell line	–	specific lysis	49.4%
ELPDEFVVVTV	–	–	peptide, tetramer-reactive CD8+ T cells, COVID-19 convalescent HLA-A*02:01 subjects	–	–	number of clonotypes	60
GTCTTTAATAATTAAACTAGTGTCTTGACAGATGTAAACAACAGGTATAAAC (dsDNA)	niaR T17A	EMSA	double-stranded DNA, one strand shown	–	–	binding	binds
MEASGVNYQNMNKQTT	Polyprotein P1234, nsP2 protease domain (Chikungunya virus, UniProt Q8JUX6)	binding, phage display	peptide	–	direction not given	enrichment score	34
Nc1ncncc1-c1cn([C@@H]2O[C@](F)(CO)[C@@H](O)[C@H]2O)cn1	Zaire ebolavirus	viral replication, reporter virus	Huh-7	72 h	–	IC50	> 100 µM
VATSRTLSY	–	–	peptide, tetramer-reactive CD8+ T cells, unexposed HLA-A*02:01 subjects	–	–	number of clonotypes	0

For quick reference, copied from above:
Substance	tested on	assay	test system	conditions	scale	measurement	result
KLPQLCTEV	HN12 (HLA-A2+ HPV+)	111In release	peptide	concentration not given, 16 h, E:T 25:1 IVS 5, added: peptide-generated T-cell line	–	specific lysis	49.4%
MEASGVNYQNMNKQTT	Polyprotein P1234, nsP2 protease domain (Chikungunya virus, UniProt Q8JUX6)	binding, phage display	peptide	–	direction not given	enrichment score	34
α-dendrotoxin	Kv channel (rat)	radioligand binding, antagonist	–	–	–	Ki	0.22 nM
